Assay results gathered from unrelated publications.
Numbers after ± are the reported error.

SMILES	cell line	assay	setting	IC50
CC(N)C(O)CCCCCCCCCCCCCCC(=O)CCCCCCCC(O)C(C)N (stereo not shown)	MCF-12A	cell growth or viability, resazurin	96 h	95.8 µM
CC[C@H](C)[C@H](NC(=O)[C@H](CCCNC(=N)N)NC(=O)[C@H](CCCNC(=N)N)NC(=O)[C@H](CCCNC(=N)N)NC(=O)[C@@H](NC(=O)[C@@H](NC(=O)[C@H](C)NC(=O)[C@H](CCCNC(=N)N)NC(=O)[C@H](CCCNC(=N)N)NC(=O)[C@H](CCCNC(=N)N)NC(=O)[C@@H]1CCCN1C(=O)[C@@H](N)CCCNC(=N)N)[C@@H](C)O)[C@@H](C)O)C(=O)N[C@H](C(=O)N[C@H](C(=O)NCC(=O)N[C@H](C(=O)N[C@@H](CCCNC(=N)N)C(=O)N[C@@H](CCCNC(=N)N)C(=O)N[C@@H](CCCNC(=N)N)C(=O)N[C@@H](CCCNC(=N)N)C(N)=O)[C@@H](C)O)[C@@H](C)O)[C@@H](C)O	Hs68	cell viability, CellTiter-Blue	24 h, serum-free medium	> 100 µM
COC(=O)C1CN1S(=O)(=O)c1ccc(C)cc1 (stereo not shown)	HT-1080	cell growth or viability, MTT	48 h	160 µM
O=C1CC2(C1)C(=O)[O][Pt]1([Cl])([O]C(=O)C(Cl)Cl)([NH][C@@H]3CCCC[C@H]3[NH]1)[O]C2=O	SGC-7901	cell growth or viability, MTT		16.8 µM
CN(C)C1=[S+][Au-]2([S]1)[c]1ccccc1-c1cccc[c]12	UWB1289	cell growth or viability, MTT	72 h	> 100 µM
CC[C@H](C)[C@H](NC(=O)[C@H](Cc1ccc(O)cc1)NC(=O)[C@@H]1CCCN1C(=O)[C@H](C)NC(=O)[C@H](CC(C)C)NC(=O)[C@H](C)NC(=O)CCCCCNC(=O)[C@H](Cc1ccc(O)cc1)NC(=O)[C@H](Cc1c[nH]cn1)NC(=O)[C@H](CCSC)NC(=O)[C@H](CCSC)NC(=O)[C@H](CC(=O)O)NC(=O)[C@@H]1CCCN1C(=O)[C@@H]1CCCN1C(=O)[C@H](Cc1c[nH]c2ccccc12)NC(=O)[C@H](CO)NC(=O)[C@@H](NC(=O)[C@H](Cc1ccc(O)cc1)NC(=O)[C@H](Cc1ccc(O)cc1)NC(C)=O)C(C)C)C(=O)N1CCC[C@H]1C(=O)N[C@@H](Cc1ccc(O)cc1)C(=O)NCC(=O)N[C@@H](CCCNC(=N)N)C(=O)N[C@@H](CCCCN)C(=O)N[C@@H](CCCCN)C(=O)N[C@@H](CCCNC(=N)N)C(=O)N[C@@H](CCCNC(=N)N)C(=O)N[C@@H](CCC(N)=O)C(=O)N[C@@H](CCCNC(=N)N)C(=O)N[C@@H](CCCNC(=N)N)C(=O)N[C@@H](CCCNC(=N)N)C(N)=O	CT26	cell growth or viability, CCK-8		10.3 µM
[Cl][Ag].[Se]=c1n(C2CCCCC2)ccn1C1CCCCC1	H157 lung carcinoma cells	cell viability, MTT	72 h	4.8 ± 0.9 µM
CC(C)C[C@H](NC(=O)[C@H](CCCCN)NC(=O)[C@H](CC(C)C)NC(=O)[C@H](CC(C)C)NC(=O)[C@H](CCCCN)NC(=O)[C@H](CCCCN)NC(=O)[C@H](CC(C)C)NC(=O)[C@H](CC(C)C)NC(=O)[C@H](CCCCN)NC(=O)[C@H](CC(C)C)NC(=O)[C@H](CC(C)C)NC(=O)[C@H](CCCCN)NC(=O)[C@H](CCCCN)NC(=O)[C@H](CC(C)C)NC(=O)[C@@H](N)CSSC[C@H](N)C(=O)N[C@@H](CC(C)C)C(=O)N[C@@H](CCC(=O)O)C(=O)N[C@@H](Cc1c[nH]cn1)C(=O)N[C@@H](CC(C)C)C(=O)N[C@@H](CC(C)C)C(=O)N[C@@H](CCC(=O)O)C(=O)N[C@@H](Cc1c[nH]cn1)C(=O)N[C@@H](CC(C)C)C(=O)N[C@@H](CCC(=O)O)C(=O)N[C@@H](Cc1c[nH]cn1)C(=O)N[C@@H](CC(C)C)C(=O)N[C@@H](CC(C)C)C(=O)N[C@@H](CCC(=O)O)C(=O)N[C@@H](Cc1c[nH]cn1)C(N)=O)C(N)=O	4T1	cell growth or viability, MTT	pH 7.4	> 100 µM
C[C@H]1C(OCCCCCCCCC[P+](c2ccccc2)(c2ccccc2)c2ccccc2)O[C@@H]2O[C@@]3(C)CCC4[C@H](C)CCC1[C@]42OO3 (stereo partly shown)	T24	cell growth or viability, MTT	72 h	0.116 µM
CCOC(=O)[C@@H]1Cc2c(cc([N+](=O)[O-])cc2[N+](=O)[O-])[C@@H](O)[C@@]12C(=O)Nc1ccc(Br)cc12	U-87 MG	cell growth or viability, MTT	24 h	28.6 µM
CC(C)[C@@H]1NC(=O)[C@H](C)OC(=O)[C@@H](C(C)C)NC(=O)[C@@H](C(C)C)OC(=O)[C@H](C(C)C)NC(=O)[C@H](C)OC(=O)[C@@H](C(C)C)NC(=O)[C@@H](C(C)C)OC(=O)[C@H](C(C)C)NC(=O)[C@H](C)OC(=O)[C@@H](C(C)C)NC(=O)[C@H](C)OC1=O	U-251	cell growth or viability, SRB	72 h	0.5 µM
C[C@H]1[C@H](OC(=O)CCC(=O)OCCc2ccc(O)cc2)O[C@@H]2O[C@@]3(C)CC[C@H]4[C@H](C)CC[C@@H]1[C@@]24OO3	SK-MEL-24	cell growth or viability, MTT	24 h	1.5 µM
COC(=O)C1CN1S(=O)(=O)c1ccccc1 (stereo not shown)	HT-1080	cell growth or viability, MTT	48 h	150 µM
COc1cc(C=CC(=O)CC(=O)C=Cc2ccc(OC(=O)CCC(=O)OC3OC4OC5(C)CCC6C(C)CCC(C3C)C46OO5)c(OC)c2)ccc1OC(=O)CCC(=O)OC1OC2OC3(C)CCC4C(C)CCC(C1C)C24OO3 (stereo not shown)	SK-MEL-3	cell viability, MTT	24 h	3.43 ± 0.16 µM
CC(C)C[C@H](NC(=O)[C@H](CC(C)C)NC(=O)[C@H](CCC(=O)O)NC(=O)[C@H](Cc1c[nH]cn1)NC(=O)[C@H](CC(C)C)NC(=O)[C@H](Cc1c[nH]cn1)NC(=O)[C@H](CCC(=O)O)NC(=O)[C@H](CC(C)C)NC(=O)[C@H](CC(C)C)NC(=O)[C@H](CCC(=O)O)NC(=O)[C@H](Cc1c[nH]cn1)NC(=O)[C@@H](N)CC(C)C)C(=O)N[C@@H](CCC(=O)O)C(=O)N[C@@H](Cc1c[nH]cn1)C(N)=O	4T1	cell growth or viability, MTT	pH 6	> 100 µM
CCOC(=O)[C@H]1Cc2c(cc([N+](=O)[O-])cc2[N+](=O)[O-])[C@H](O)[C@]12C(=O)Nc1ccccc12	U-87 MG	cell growth or viability, MTT	24 h	64.7 µM
CC(C)C[C@H](NC(=O)[C@H](CC(C)C)NC(=O)[C@H](Cc1c[nH]cn1)NC(=O)[C@H](CCC(=O)O)NC(=O)[C@H](CC(C)C)NC(=O)[C@H](Cc1c[nH]cn1)NC(=O)[C@H](CCC(=O)O)NC(=O)[C@H](CC(C)C)NC(=O)[C@H](CC(C)C)NC(=O)[C@H](Cc1c[nH]cn1)NC(=O)[C@H](CCC(=O)O)NC(=O)[C@@H](N)CC(C)C)C(=O)N[C@@H](CCC(=O)O)C(=O)N[C@@H](Cc1c[nH]cn1)C(N)=O	4T1	cell growth or viability, MTT	pH 7.4	> 100 µM
C[C@H]1C(OCCCCCCCCCCCC[P+](c2ccccc2)(c2ccccc2)c2ccccc2)O[C@@H]2O[C@@]3(C)CCC4[C@H](C)CCC1[C@]42OO3 (stereo partly shown)	T24	cell growth or viability, MTT	72 h	0.116 µM
COc1ccnc(-c2cc(OC)ccn2)c1.[C-]#[O+].[C-]#[O+].[C-]#[O+].[Re+]	MRC-5	cell viability		6 ± 1.9 µM

SMILES	cell line	assay	setting	IC50
CC(C)OC(=O)C(n1cccn1)n1cccn1.F[P-](F)(F)(F)(F)F.[Cu+].c1ccc(P(c2ccccc2)c2ccccc2)cc1	LoVo OXP, oxaliplatin-resistant	MTT	72 h	8.8 ± 1.3 µM
CC(=O)c1ccc2c(c1)N(CCCN(C)C)c1ccccc1S2	Vero 76	cytotoxicity		28.8 ± 11 µM
C1=CCCC=CCC1.C1=CCCC=CCC1.[Cl][Hg-]([Cl])[Cl].[Cl][Hg-]([Cl])[Cl].[Pt+][c]1ccccc1P(=Nc1ccccc1)(c1ccccc1)c1ccccc1.[Pt+][c]1ccccc1P(=Nc1ccccc1)(c1ccccc1)c1ccccc1	MIA PaCa-2	cell growth or viability, MTT	24 h	0.79 µM
Cc1nc([C@H](NC(=O)c2ccc(-c3ccc(Cl)cc3)[nH]2)[C@@H]2CCCCN2)sc1CO	MAGI-CCR5 and HL2/3 cells	HIV-1 Env-mediated cell fusion, beta-galactosidase		10.8 µM
O=C1[O][Pt]2([OH])([OH])([NH]C3CCCCC3[NH]2)[O]C1=O (stereo not shown)	T24	cell growth or viability, resazurin	72 h	> 100 µM
C[C@@H]1N=C(c2ccccc2)c2cc(C#CCCCC(=O)NO)ccc2N(C)C1=O	Kasumi	apoptosis induction, annexin V/PI	48 h	0.61 µM
[Cl][Au-]1([Cl])[c]2ccccc2P(c2ccccc2)(c2ccccc2)=[N+]1c1ccccc1	human PBMC (healthy donors)	cell death, annexin V flow cytometry	24 h	6 µM
CC(=O)N[C@@H](CC(C)C)C(=O)N[C@@H](C)C(=O)N1CCC[C@H]1C(=O)N1CCC[C@H]1C(=O)N[C@@H](CC(C)C)C(=O)N[C@@H](Cc1c[nH]cn1)C(=O)N[C@@H](CO)C(=O)N[C@H](C(=O)N[C@@H](C)C(N)=O)[C@@H](C)OP(=O)(O)O	U-266	cell growth or viability, MTT	72 h	0.97 µM
C[C@H]1[C@H](OCCc2ccc(O)cc2)O[C@@H]2O[C@@]3(C)CC[C@H]4[C@H](C)CC[C@@H]1[C@@]24OO3	SK-MEL3	cell growth or viability, MTT	24 h	10.6 µM
CC(C)(C)C(=O)OCOP(=O)(OCOC(=O)C(C)(C)C)C1CCCN(O)C1=O (stereo not shown)	RCC4 VHL-deficient	cell growth, crystal violet		~0.25 µM
CN(C)CC1C(=O)OC2C1CCC1(C)CC1CCC1(C)OC21 (stereo not shown)	U-87 MG	cell growth or viability, resazurin		10.5 µM
CC1OC(OC2CCC3(C)C(CCC4C3CCC3(C)C(C5=CC(=O)OC5)CCC43O)C2)C(O)C(O)C1OC1OC(CO)C(O)C(O)C1O (stereo not shown)	BEAS-2B	cell growth or viability, MTT	48 h	0.29 µM
CC(C)c1cccc(C(C)C)c1-n1c[n+](-c2c(C(C)C)cccc2C(C)C)c2c1-c1cccc3cccc-2c13.[Cl][Pd-]([Cl])[CH2]C=Cc1ccccc1	CHO	cell growth or viability, MTT	72 h	8 µM
CCC(C)C1OC(=O)C(NC(=O)c2cccc(NC=O)c2O)C(C)OC(=O)C(C(C)CC)OC(=O)C(C)(C)C(O)C(Cc2ccccc2)OC1=O (stereo not shown)	NCM460	cell growth or viability, CCK-8	72 h	> 50 µM
[Cl][Os][Ge]([Cl])([Cl])[Cl].c1ccc(P(c2ccccc2)c2ccccc2)cc1.c1ccccc1	Ehrlich	cell growth or viability, MTT	24 h	13.7 µM
C#CCSc1nc(Sc2nnnn2C)c2nnn(Cc3ccccc3)c2n1	THP-1	cell growth or viability, MTS	6 days	1.14 µM
OC[C@H]1[C@@H](O)[C@@H](O)CN1Cc1ccc(I)cc1	K562-Tax	cell growth or viability, MTS	72 h	103 µM
CC[C@@H](C)[C@@H](NC(=O)[C@@H](Cc1c[nH]c2ccccc12)NC(=O)[C@H](N)CCCNC(=N)N)C(=O)N[C@H](CCSC)C(=O)N[C@H](Cc1ccc(O)cc1)C(=O)N[C@H](Cc1ccccc1)C(N)=O	MDA-MB-468	cell growth or viability, trypan blue		15 µM
